# Results gathered from unrelated publications.
# Each line is one published result; not all experiments were run side by side. Numbers after ± are the reported error.
Structure (SMILES),target,test,system,setting,IC50
CCOP(=S)(OCC)O/N=C(\C#N)c1ccccc1,nanobody A4,"binding, ic-ELISA",,,5180 nM
CO/N=C1\C[C@]2(C[C@@H]3C[C@@H](C/C=C(\C)C[C@@H](C)/C=C/C=C4\CO[C@@H]5[C@H](O)C(C)=C[C@@H](C(=O)O3)[C@]45O)O2)O[C@H](/C(C)=C/C(C)C)[C@H]1C,LXRalpha,,cells,,31100 ± 2600 nM
COc1cc(Nc2ncc(F)c(Nc3ccc4c(n3)NC(=O)C(C)(C)O4)n2)cc(OC)c1OC,GABAA receptor chloride channel,binding,,with: TBOB,> 10000 nM
C[C@H]1N=C(c2ccccc2F)c2cc(Br)ccc2-n2cnc(C(=O)O)c21,rat brain GABA-A receptor,[3H]flunitrazepam binding,rat brain extract,,26.3 nM
CCOP(=S)(OCC)SCCSCC,nanobody A4,"binding, ic-ELISA",,with: H1-OVA coating antigen,> 4 µg/mL
CCOC(=O)c1ccc(OC(=O)CCCCCN=C(N)N)cc1,trypsin (human),"enzyme activity, inhibitor",,,32.3 nM
CC[C@H](C)[C@@H]1NC(=O)[C@H]([C@@H](C)O)NC(=O)CNC(=O)[C@H](CCC(=O)O)NC(=O)[C@H](CCCCN)NC(=O)[C@H](CC(C)C)NC(=O)[C@H](Cc2ccccc2)NC(=O)[C@H](CCCCN)NC(=O)[C@@H]2CSSC[C@H](NC(=O)[C@@H](N)CCC(=O)O)C(=O)N[C@@H](CCC(=O)O)C(=O)N[C@@H](CO)C(=O)NCC(=O)N3CCC[C@H]3C(=O)N[C@H]3CSSC[C@@H]4NC(=O)[C@H](Cc5ccc(O)cc5)NC(=O)[C@H](CC(=O)O)NC(=O)[C@H](CC(=O)O)NC(=O)[C@H](CCSC)NC(=O)[C@H](CC(=O)O)NC(=O)[C@H](CC(=O)O)NC(=O)CNC(=O)[C@H](CCCNC(=N)N)NC(=O)[C@H](C)NC(=O)[C@H](CCCNC(=N)N)NC(=O)[C@H](CCCCN)NC(=O)[C@H](CSSC[C@@H](C(=O)N5CCC[C@H]5C(=O)N[C@@H](CCCNC(=N)N)C(=O)N[C@@H](CC(N)=O)C(=O)N5CCC[C@H]5C(=O)N[C@@H](Cc5c[nH]cn5)C(=O)N[C@@H](CCCCN)C(=O)NCC(=O)N5CCC[C@H]5C(=O)N[C@@H](C)C(=O)N[C@H](C(=O)O)[C@@H](C)O)NC(=O)[C@H](CC(=O)O)NC(=O)[C@H](CSSC[C@H](NC3=O)C(=O)N[C@@H](CCCNC(=N)N)C(=O)N[C@@H](CC(N)=O)C(=O)N2)NC(=O)[C@H]([C@@H](C)O)NC(=O)[C@H](CCCCN)NC(=O)CNC(=O)[C@H](CC(N)=O)NC4=O)NC1=O,integrin αvβ3 (human),"cell adhesion to vitronectin, inhibitor",K562 expressing αvβ3,"2 h, 37 °C",3.2 ± 2.7 nM
CCOP(=S)(OCC)Oc1ccc2c(C)c(Cl)c(=O)oc2c1,nanobody A4,"binding, ic-ELISA",,,246 nM
CO[C@H]1C[C@H](O[C@H]2[C@H](C)O[C@@H](O[C@@H]3/C(C)=C/C[C@@H]4C[C@@H](C[C@]5(C=C[C@H](C)[C@@H](C6CCCCC6)O5)O4)OC(=O)[C@@H]4C=C(C)[C@@H](O)[C@H]5OC/C(=C\C=C\[C@@H]3C)[C@]54O)C[C@@H]2OC)O[C@@H](C)[C@@H]1O,LXRalpha,,cells,,29900 ± 4680 nM

# Excerpt of the above:
Structure (SMILES),target,test,system,setting,IC50
COc1cc(Nc2ncc(F)c(Nc3ccc4c(n3)NC(=O)C(C)(C)O4)n2)cc(OC)c1OC,GABAA receptor chloride channel,binding,,with: TBOB,> 10000 nM
